Published values collected from several papers.
Lines come from different studies, so protocols differ. Several values in a cell are separate wells, animals, samples, runs or records. ± gives the spread as reported.

COC(=O)c1ccc2c(c1)NC(=O)/C2=C(\Nc1ccc(N(C)C(=O)CN2CCN(C)CC2)cc1)c1ccccc1  AUC(tau) steady state (human moderate liver impairment, plasma; oral, 200 mg twice daily, geometric mean): 1060 ng·h/mL
Cn1ncc(Cl)c1-c1cc(C(=O)N[C@H](CN)Cc2ccc(F)c(F)c2)oc1Cl  effective half-life (human patients, plasma; oral, 150 mg once daily, day 15, repeat dose): 87.9 to 129 h
C[C@]12CC[C@@H]3c4ccc(O)cc4CC[C@H]3[C@@H]1C[C@@H](O)[C@@H]2O  median serum concentration (GC-MS; breast cancer women on NSAI, serum; vaginal, 0.03 mg, 3 h, day 0): 0.0838 ng/mL
CNCCC(Oc1ccc(C(F)(F)F)cc1)c1ccccc1 (stereo not drawn)  fraction unbound (rapid equilibrium dialysis; pooled human plasma; 4 h, with: cassette with gefitinib, losartan): 0.08
CCOc1ccc(Cc2cc([C@]34OC[C@](CO)(O3)[C@@H](O)[C@H](O)[C@H]4O)ccc2Cl)cc1  fu (equilibrium dialysis; human, type 2 diabetes, mild renal impairment, plasma; oral, 15 mg, 6 h): 0.0346
Nc1ccc(-c2nc([C@H]3CCc4cc(-c5cc(Cl)ccc5-n5cnnn5)cc(=O)n43)c(F)[nH]2)c(F)n1  AUC (human, plasma; oral, 5 mg, single dose, fasted): 541 ng·h/mL
NCCCS(=O)(=O)O  terminal elimination rate constant (human, plasma; oral, 100 mg loose-filled capsule, single dose): 5.13e-05 ± 2.83e-05 s⁻¹
CC[C@H](C)[C@@H]1NC(=O)[C@H](Cc2ccc(O)cc2)NC(=O)[C@@H](N)CSSC[C@@H](C(=O)N2CCC[C@H]2C(=O)N[C@@H](CC(C)C)C(=O)NCC(N)=O)NC(=O)[C@H](CC(N)=O)NC(=O)[C@H](CCC(N)=O)NC1=O  AUC(0-t) (microdialysis, radioimmunoassay; knock-out male mice lacking compound, hippocampus extracellular fluid; intranasal, 12 µg, total area from zero): 197 ± 96.3 pg·30 min/sample
[2H]C([2H])([2H])Oc1cc2c(cc1OC([2H])([2H])[2H])C1CC(=O)C(CC(C)C)CN1CC2 (stereo not drawn)  geometric mean ratio AUC0-t (measured: β-HTBZ; human, fasted; oral, 15 mg single dose; relative to: tetrabenazine 25 mg fasted): 99.6%
C[C@@H]1CCN(C(=O)CC#N)C[C@@H]1N(C)c1ncnc2[nH]ccc12  amount remaining in gastrointestinal tract (rat, control; intravenous infusion, 10 mg/kg, 24 h; relative to: dose): 0.484 ± 0.298%
FC(F)(F)c1ccc(CNc2ccc(Cc3c[nH]c4ncc(Cl)cc34)cn2)cn1  AUC(0-4h) (human patients, plasma; oral, 1000 mg/day, steady state): 26100 ng·h/mL
liraglutide  plasma protein binding (equilibrium dialysis; human plasma 50% diluted; 10 nM, 4 to 5 h, pH 7.4, 37 °C, inner-outer ratio 100:1): 99.3%
Cn1c(-c2ccc(C(N)=O)cc2F)nnc1C(C)(C)Oc1c(F)cc(Cl)cc1F  Tmax range (healthy young Japanese subjects, plasma; oral, 50 mg once daily, day 18, 14 days dosing): 1 to 4 h
CNCc1ccc(-c2cc(-c3nc(-c4ccc(S(=O)(=O)C(C)C)cc4)cnc3N)on2)cc1  CL (mouse BALB/c female, plasma; intravenous, 2.0 mg/kg, from AUC(0-inf)): 38.5 mL/min/kg
acyl ghrelin (human)  brain/serum ratio (mouse, Ghsr knockout, cortex; intravenous, 10 min): 5.11 µL/g
CNC(=O)c1ccc(-c2cnc3ncc(Cc4ccc5ncccc5c4)n3n2)cc1F  Tmax (median) (human, mild hepatic impairment (Child-Pugh A), plasma; oral, 200 mg single dose): 1.25 h
CCCC[C@@H]1NC(=O)[C@@H](NC(=O)[C@H](CCC(=O)O)NC(=O)CNC(=O)CN2CCN(CC(=O)O)CCN(CC(=O)O)CCN(CC(=O)O)CC2)CCCCNC(=O)C[C@@H](C(N)=O)NC(=O)[C@H](C(C)C)NC(=O)[C@@H]2CCCN2C(=O)[C@H](CCCNC(=N)N)NC(=O)CNC(=O)[C@H](Cc2c[nH]c3ccccc23)NC(=O)[C@H](CCCNC(=N)N)NC(=O)[C@@H](Cc2ccccc2)NC(=O)[C@H](Cc2c[nH]cn2)NC(=O)[C@H](CCC(=O)O)NC1=O [indium-111 labelled]  tissue uptake (normal C57 mice, liver; intravenous, 0.037 MBq, 24 h): 0.12 ± 0.01 %ID/g
O=C1N=C(N2CCOCC2)CN1c1ccc(Cl)cc1  terminal half-life (beagle dog, male; oral, 30 mg/kg, tablets): 1.7 h
FNA / CGLSGLGVA-NH2 ([18F]FNA-labelled, C-amide)  tumour SUV (PET imaging; peptide, mouse, intracranial BT-12 glioblastoma xenograft; iv, dose not given): 0.21 ± 0.03
CCN1CC(=O)NC(CC(C)C)C(=O)N(C)C(C)C(=O)NC(CC(C)C)C(=O)N2CCCC2C(=O)N(CC2CCOCC2)CC(=O)NC(CC(C)C)C(=O)N(C)C(C)C(=O)NC(C)C(=O)N2CCCC2C1=O (stereo not drawn)  oral bioavailability (mouse; with: 1-aminobenzotriazole pretreatment): 2%
O=c1c(O)c(-c2ccc(O)cc2)oc2cc(O)cc(O)c12  precipitation concentration (phosphate buffer; pH 6.8, added from DMSO stock): > 80 µM
COc1ccc2nc([S@@+]([O-])Cc3ncc(C)c(OC)c3C)[nH]c2c1  adverse events (human healthy; 40 mg, respiratory thoracic mediastinal disorders): 8%
CC(=O)N[C@@H](CCCNC(=N)N)C(=O)N[C@H](C(=O)N[C@@H](CC(=O)O)C(=O)N[C@H](C(=O)N[C@@H](CCCNC(=N)N)C(=O)N[C@H](C(=O)N[C@@H](CC(=O)O)C(=O)N[C@H](C(N)=O)C(C)C)C(C)C)C(C)C)C(C)C  viscosity (rotational rheometry; 2% w/v aqueous solution; shear rate range 1-1000 s^-1): 1680 ± 43.3 Pa·s
C=C(C)[C@@H]1CC[C@]2(NCCN3CCS(=O)(=O)CC3)CC[C@]3(C)[C@H](CC[C@@H]4[C@@]5(C)CC=C(C6=CC[C@@](CF)(C(=O)O)CC6)C(C)(C)[C@@H]5CC[C@]43C)[C@@H]12  t1/2 (healthy human; oral, 700 mg, single ascending dose, geometric mean): 20.8 h
CCCOc1ccc([C@H]2CNC(=O)N2c2ccc3[nH]cnc3c2)cc1  effective half-life (human volunteers fasted, plasma; oral solution, 10 mg single dose, day 1, geometric mean): 2.05 h
O=C(O)[C@H](c1ccccc1Cl)N1CCc2sccc2C1  deviation from nominal (HPLC-MS/MS; feline EDTA plasma; 24 h, 4 °C, storage stability): -1%
Cc1cc(-c2cc(OC(=O)c3ccccc3)ccc2Cl)cc2nnc(Nc3ccc(OCCN4CCCC4)cc3)nc12  concentration (C57BL/6 mouse, retina; topical, 1%, 24 h): 16 nM
CNCc1ccc(-c2[nH]c3cc(F)cc4c3c2CCNC4=O)cc1  AUC(0-t) (human patients, plasma; oral, 80 mg once daily, day 1, 24 h, single dose, arithmetic mean): 800 ng·h/mL
Nc1ccc(S(=O)(=O)N2CCN(CC(=O)N[C@@H](Cc3cc(F)cc(F)c3)c3nc4ccccc4c(=O)n3-c3ccc(S(=O)(=O)N4CCOCC4)cc3)C(=O)C2)cc1  clearance (Sprague-Dawley rats; intravenous, 2 mg/kg): 60 mL/min/kg
O=C(O)C(F)(F)c1cc(F)ccc1Nc1c(Cl)cccc1Cl  remaining compound (human liver microsomes; 30 min, with: NADPH): 25 ± 0.4%
CCCC[C@H](NC(C)=O)C(=O)N[C@H]1CCC(=O)NC[C@@H](C(=O)N[C@@H](Cc2c[nH]c3ccccc23)C(N)=O)NC(=O)[C@H](CCCNC(=N)N)NC(=O)[C@@H](Cc2ccccc2)NC(=O)[C@H](Cc2c[nH]cn2)NC1=O  CL/F (CD Sprague Dawley rat, male, plasma; subcutaneous, 1.0 mg/kg daily, day 1): 15.4 mL/min/kg
CCCCC1(CCCC)CN(c2ccccc2)c2cc(SC)c(OCC(=O)N[C@@H](C(=O)NCC(=O)O)c3ccccc3)cc2S(=O)(=O)C1  AUC(0-t) (human, plasma; oral, 5 mg once daily, day 14, geometric mean): 0.751 ng·h/mL
NC(=O)CN[C@@H]1CCCNC1  pKa1 (capillary electrophoresis-MS; water): 5.13
des-acyl ghrelin (human)  brain/serum ratio (mouse, Ghsr knockout, hypothalamus; intravenous, 10 min): 9.16 µL/g
Cc1cc(Nc2ncc(Cl)c(Nc3ccccc3S(=O)(=O)C(C)C)n2)c(OC(C)C)cc1C1CCNCC1  Css,max total (human, plasma; oral, 450 mg/day with food, steady state after dose 9): 909 nM and 1120 nM and 1160 nM and 1090 nM and 1140 nM and 1020 nM and 1050 nM
CON  blood concentration (human, whole blood on ice; 30 min before centrifugation): 10.6 ng/mL
CNCCCC1(c2ccc(F)cc2)OCc2cc(C#N)ccc21 (stereo not drawn)  transplacental transfer index (mouse, perfused E18 placenta ex vivo; 500 ng/mL maternal side, 120 min, pH 7.3; relative to: antipyrine): 0.2 ± 0.96
O=C(Nc1nc2cccc(-c3ccc(CN4CCS(=O)(=O)CC4)cc3)n2n1)C1CC1  terminal half-life (human male; oral, 200 mg once daily, steady state, mean): 5.17 h
CCCCOCCOc1ccc(-c2ccc3c(c2)/C=C(/C(=O)Nc2ccc([S@@+]([O-])Cc4cncn4CCC)cc2)CCCN3CC(C)C)cc1  effective half-life (human, mild hepatic impairment; oral, 150 mg): 13.7 h
O=C1NC(=O)C(c2ccccc2)(c2ccccc2)N1  distribution volume (rat, brain slices; 3.64 µM, 90 min): 4.28 ± 0.07 mL/g brain
N=C(N)c1ccc(CNC(=O)[C@@H]2CCN2C(=O)[C@H](NCC(=O)O)C2CCCCC2)cc1  plasma concentration (Wistar rats male, plasma; intravenous, 0.003 mg/kg, 15 min, 10 min after TF): 6.3 ± 0.3 ng/mL
Cc1cc(C)c(C(N)=O)c(SCC(=O)c2ccc(F)cc2)n1  microsomal CLint (metabolic stability; human, liver microsomes; 0.5 µM, pH 7.4): < 23.1 µL/min/mg
Cc1ccc(NC(=O)c2ccc(CN3CCN(C)CC3)cc2)cc1Nc1nccc(-c2cncc(-c3oncc3C)c2)n1  AUC(0-t) (Parkinson's disease patients, plasma; oral, 50.0 mg once daily, day 7, 7-day dosing, mean): 51100 ng·h/mL
CC(C)[C@H](N)C(=O)OCC1(CO)C/C1=C/n1cnc2c(=O)[nH]c(N)nc21.Cl (mixture of isomers)  distribution half-life (measured: prodrug; Swiss-Webster mouse (male), plasma; intravenous, 24.6 mg/kg, two-compartment model): 2.73 min
CC(C)NC[C@@H](C(=O)N1CCN(c2ncnc3c2[C@H](C)C[C@H]3O)CC1)c1ccc(Cl)cc1  t1/2 (human, Mild hepatic function (Child-Pugh), plasma; oral, 100 mg single dose, arithmetic mean): 48.6 h
CC1(C)Oc2cc3oc(=O)ccc3cc2C[C@@H]1O  plasma Chol level (male CD-1 mouse, plasma; oral gavage, 80 mg/kg daily, 4 weeks): 167 ± 28.3 mg/dL
CO[C@H]1C[C@@H]2CC[C@@H](C)[C@@](O)(O2)C(=O)C(=O)N2CCCC[C@H]2C(=O)O[C@H]([C@H](C)C[C@@H]2CC[C@@H](O)[C@H](OC)C2)CC(=O)[C@H](C)/C=C(\C)[C@@H](O)[C@@H](OC)C(=O)[C@H](C)C[C@H](C)/C=C/C=C/C=C/1C  terminal half-life (healthy dogs, whole blood; oral, 0.1 mg/kg once daily, 5 days): 99.5 ± 89.5 h
O=C(c1cc(Cc2n[nH]c(=O)c3ccccc23)ccc1F)N1CCN(C(=O)C2CC2)CC1  AUC(0-10 h) (cancer patients; oral, 200 mg twice daily, day 2, with: pegylated liposomal doxorubicin): 46200 ± 52000 ng·h/mL
